# Experimental data pooled from the literature.
# Parts stem from different laboratories: compare values within a part only.

# Block 1 — method: protein-binding microarray; molecule type: double-stranded DNA, one strand shown; matrix: in vitro; tested at: 2200 nM top; notes: 60-bp whole probe; added: salmon DNA 0.4 mg/ml; relative to: random background probes; direction: higher = stronger binding; shared flanks, not repeated: GCCTAGCAC … GTCTTGATTCGCTTGACGCTGCTG
# Target: Interferon regulatory factor 7, full length, phosphomimetic (IRF7, Homo sapiens, UniProt Q92985, residues 1-503, S471D/S472D/S475D/S476D/S477D/S483D/S484D/S487D)
# Residues (chain): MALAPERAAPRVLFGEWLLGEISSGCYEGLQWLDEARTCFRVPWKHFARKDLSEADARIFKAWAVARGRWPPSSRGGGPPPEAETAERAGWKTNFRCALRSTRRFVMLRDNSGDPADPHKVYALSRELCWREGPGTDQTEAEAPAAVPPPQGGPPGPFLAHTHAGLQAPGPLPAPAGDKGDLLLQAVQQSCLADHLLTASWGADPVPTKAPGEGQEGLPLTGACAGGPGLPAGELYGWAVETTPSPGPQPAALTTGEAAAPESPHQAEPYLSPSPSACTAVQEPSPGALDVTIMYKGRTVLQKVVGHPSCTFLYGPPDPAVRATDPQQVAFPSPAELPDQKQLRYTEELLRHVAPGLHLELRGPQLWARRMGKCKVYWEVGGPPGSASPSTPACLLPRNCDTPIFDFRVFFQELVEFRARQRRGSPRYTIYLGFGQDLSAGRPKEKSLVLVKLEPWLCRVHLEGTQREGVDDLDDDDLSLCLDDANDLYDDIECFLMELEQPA
Sequence,fitted relative affinity [z-score]
TTAGGTATGGACACTGGGTTAGTGCTA,-0.286
GACGATATCGGGTTACGAGACGTGCTA,0.333
TTAGGTATCGGTCTCAGTTAGTGCTAG,0.927
TCTAATATTCATTTTATTCAGTGCTAG,1.17
TCAATTATAACACTCTTACTGTGCTAG,0.536

# Block 2 — method: universal PBM; molecule type: double-stranded DNA, one strand shown; matrix: in vitro; tested at: 600 nM; direction: higher = stronger binding
# Target: Sal-like protein 4, full length isoform A (SALL4, Homo sapiens, UniProt Q9UJQ4, residues 1-1053)
# Chain of UniProt Q9UJQ4 (whole entry, looked up): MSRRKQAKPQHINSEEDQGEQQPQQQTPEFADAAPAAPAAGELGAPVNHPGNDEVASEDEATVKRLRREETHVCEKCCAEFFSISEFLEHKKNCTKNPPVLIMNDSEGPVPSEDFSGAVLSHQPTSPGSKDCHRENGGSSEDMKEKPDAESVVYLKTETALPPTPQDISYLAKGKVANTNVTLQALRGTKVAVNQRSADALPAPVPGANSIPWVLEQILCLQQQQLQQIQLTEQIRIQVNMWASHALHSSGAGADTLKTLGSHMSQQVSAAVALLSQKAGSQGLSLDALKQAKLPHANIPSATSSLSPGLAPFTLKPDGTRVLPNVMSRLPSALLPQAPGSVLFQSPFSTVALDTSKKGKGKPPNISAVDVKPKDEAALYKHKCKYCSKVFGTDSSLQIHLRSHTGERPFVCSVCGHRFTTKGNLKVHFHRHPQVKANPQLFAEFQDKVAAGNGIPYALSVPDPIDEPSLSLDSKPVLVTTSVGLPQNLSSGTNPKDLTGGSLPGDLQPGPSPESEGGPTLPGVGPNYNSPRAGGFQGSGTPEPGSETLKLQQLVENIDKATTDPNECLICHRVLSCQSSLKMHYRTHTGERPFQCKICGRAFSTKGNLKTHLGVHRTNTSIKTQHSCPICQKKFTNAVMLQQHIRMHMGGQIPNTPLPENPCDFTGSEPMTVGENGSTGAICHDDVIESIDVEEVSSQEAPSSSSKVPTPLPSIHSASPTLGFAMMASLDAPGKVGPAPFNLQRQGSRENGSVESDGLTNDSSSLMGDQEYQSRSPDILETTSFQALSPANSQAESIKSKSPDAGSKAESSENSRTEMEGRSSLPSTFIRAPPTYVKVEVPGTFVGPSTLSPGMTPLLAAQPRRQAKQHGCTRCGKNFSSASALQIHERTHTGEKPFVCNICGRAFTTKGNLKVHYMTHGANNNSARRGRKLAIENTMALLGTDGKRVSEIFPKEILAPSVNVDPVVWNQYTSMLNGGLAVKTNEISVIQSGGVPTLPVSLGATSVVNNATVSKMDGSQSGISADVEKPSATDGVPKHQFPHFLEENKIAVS
# Notes: 8-mer, flanks averaged, mean of replicates
Sequence,E-score
TAAAATTA,0.327
GACATCAC,0.0136
AAGCTTCG,-0.208
ATCGAATG,0.194
GGAAGCGA,-0.131
CGCGATCA,-0.0607

# Block 3 — method: protein binding microarray; molecule type: double-stranded DNA, one strand shown; matrix: in vitro; tested at: not given; relative to: not given; direction: higher = stronger binding
# Target: Histone acetyltransferase KAT6A, winged helix 2, GST fusion (KAT6A, Homo sapiens, UniProt Q92794, residues 85-181)
# Notes: 8-mer, flanks averaged, mean of 2 arrays, mostly near background
# Residues (chain): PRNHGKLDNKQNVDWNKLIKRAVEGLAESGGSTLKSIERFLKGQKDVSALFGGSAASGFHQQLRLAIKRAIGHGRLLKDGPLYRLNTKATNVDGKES
Sequence,E-score
AAATGCTT,0.0563
TTAAGAAA,0.0849
AGGGTGTA,0.00507
CAACCGTG,-0.0385
CAAGGTGG,0.0505
GGAGTGCC,0.191

# Further values, each from its own experiment
Substance,target,assay,test system,setting,how to read,measurement,result
"PhoQ, residues 284 288 289 292 302 303 STVVAA","PhoP, residues 12 14 15 18 19 QYFSL (Escherichia coli, UniProt P23836)","Sort-seq, refers to: YFP reporter",E. coli,"PhoQ-PhoP variant library, added: 10 µM Mg2+","relative to: high Mg2+ state, higher = stronger signaling",fold induction,0.44

# Repeated from above (block 1):
Sequence,fitted relative affinity [z-score]
TTAGGTATCGGTCTCAGTTAGTGCTAG,0.927
TCTAATATTCATTTTATTCAGTGCTAG,1.17
